Measurements gathered from unrelated publications.
Lines come from different studies, so protocols differ. “And” joins repeats or separate records; there may be more than shown. ± gives the spread as reported.

| SMILES | test | system | setting | how to read | measurement | value |
| --- | --- | --- | --- | --- | --- | --- |
| CC#Cc1cncc(-c2ccc3c(c2)[C@@]2(N=C(C)C(N)=N2)[C@]2(CC[C@H](OC)CC2)C3)c1 | item: Aβ40 and Aβ42 | C57BL/6 mice, brain | oral, dose not given | – | time to maximum effect | 3 h |
| Cc1cc(Nc2ccc(S(F)(F)(F)(F)F)cc2)n2nc(C(C)(F)F)nc2n1 | item: dihydroorotate | female CD-1 mice, blood | oral, 300 mg/kg daily, 24 h after dose 10 | – | DHO concentration | 1.6 ± 0.102 µM |
| c1ccc(-c2n[nH]cc2-c2ccnc3ccccc23)nc1 | kinase binding, competitor, MIB/MS competition, item: CMK2 | Candida albicans cell lysate | 1 µM | reference: DMSO | log2 fold change | 0.199 |
| NC(=O)c1cnc2[nH]ccc2c1N[C@@H]1[C@@H]2CC3C[C@H]1C[C@@](O)(C3)C2 | flow cytometry | Japanese healthy men, blood | oral, 100 mg twice daily, 72 h after day 7 dose | reference: baseline | CD4+ memory T-cell change | -0.57% |
| N#Cc1ccn2c(-c3ccncc3)c(-c3ccc(F)cc3)nc2c1 | kinase binding, competitor, MIB/MS competition, item: CMK2 | Candida albicans cell lysate | 100 nM | reference: DMSO | log2 fold change | -0.764 |
| O=C1Nc2cc3[nH]nc(-c4ccncc4)c3cc2CN1Cc1ccccc1 | RECIST v1.1 | human, relapsed or refractory advanced solid tumours | intravenous, 1.8 mg/kg, pooled schedules | – | partial response, best response | 0% |
| C[C@H]1C[C@H]2CSC(N)=N[C@@]2(c2nc(NC(=O)c3ccc(OC(F)F)cn3)cs2)CO1 | item: Aβ1-40 | healthy adults, plasma | 125 mg once daily, day 10 | reference: placebo | percent change from baseline | -86.8% |
| Cn1cc(Nc2nccc(-c3ccc4c(c3)CN(C3COC3)CC[C@H]4NC(=O)c3cn(C(C)(C)C)nn3)n2)cn1 | item: Th2 pathway | splenic B cells, mice | 30 mg/kg, IgD-activated in vivo | reference: vehicle, direction not given | pathway activation z-score | 0.243 |
| N#Cc1ccc2c(-c3ccncc3)c(-c3ccc(F)cc3)nn2c1 | kinase binding, competitor, MIB/MS competition, item: PBS2 | Candida albicans cell lysate | 1 µM | reference: DMSO | log2 fold change | 0.0176 |
| CSCCNc1nc(SCCC(F)(F)F)nc2c1ncn2[C@@H]1O[C@H](COP(=O)(O)OP(=O)(O)C(Cl)(Cl)P(=O)(O)O)[C@@H](O)[C@H]1O | platelet aggregation, light transmission aggregometry | human patients, platelet-rich plasma | dose not given, 4 to 6 h, inhibition threshold 90%, added: TRAP 5 µM | – | patients with inhibition above threshold | 8.1% |
| NCC(=O)Nc1cncc(-c2nn3c(=O)cc(N4CCNCC4)nc3s2)c1 | ADP-induced platelet aggregation, light transmission aggregometry | human stable CAD patients on aspirin, platelets ex vivo | 0.04 mg/kg, 120 min post dose, added: 20 µM ADP | reference: placebo difference | inhibition of platelet aggregation | 1.32% |
| COc1nnc2ccc(N3CCC(c4ccc(OCCN5CCN(C)C(=O)[C@H]5C)cc4)CC3)nn12 | – | mice | 0.038 mg/kg | – | time HEXIM1 above threshold | 3.7 h |
| C[C@]1(c2nc3c(C(N)=O)cccc3[nH]2)CCCN1 | item: poly(ADP-ribose) | cancer patients, PBMC | 1.2 mg/m2/day, all but highest dose, added: topotecan | – | PAR reduction | > 50% |
| CC(c1cc2ccccc2s1)N(O)C(N)=O (centres unmarked) | item: 4-HDHA | human whole blood | 3 µM, added: Escherichia coli | – | amount | 76 ± 26 pg/mL blood |
| C[C@@H]1CCC[C@H](n2cnc(-c3cc(Cl)ccc3-n3cc(Cl)nn3)cc2=O)c2cc(ccn2)-c2c(cnn2C(F)F)NC1=O | – | rabbit plasma | IC2.5× aPTT, Actin FS reagent | – | concentration for aPTT prolongation | 5 µM |
| CC(=O)NCC(=O)NCC(=O)N[C@H](C(=O)N[C@@H](Cc1ccc(O)cc1)C(=O)N[C@@H](CO)C(=O)N[C@H]1CSSC[C@@H](C(=O)N[C@@H](CCCNC(=N)N)C(=O)N2CCC[C@H]2C(=O)N[C@@H](CCC(N)=O)C(=O)N[C@@H](CCCNC(=N)N)C(=O)NCC(=O)NCCC(=O)N[C@@H](CCCCNC(=O)CN(CC(=O)NCCCC[C@H](NC(=O)CCNC(=O)CNC(=O)[C@H](CCCNC(=N)N)NC(=O)[C@H](CCC(N)=O)NC(=O)[C@@H]2CCCN2C(=O)[C@H](CCCNC(=N)N)NC(=O)[C@@H]2CSSC[C@H](NC(=O)[C@H](CO)NC(=O)[C@H](Cc3ccc(O)cc3)NC(=O)[C@@H](NC(=O)CNC(=O)CNC(C)=O)[C@@H](C)O)C(=O)N[C@@H](Cc3c[nH]cn3)C(=O)N[C@@H](Cc3ccccc3)C(=O)NCC(=O)N[C@@H](C)C(=O)N[C@@H](CC(C)C)C(=O)N[C@@H]([C@@H](C)O)C(=O)N[C@@H](Cc3c[nH]c4ccccc34)C(=O)N[C@@H](C(C)C)C(=O)N2)C(N)=O)C(=O)CCN)C(N)=O)NC(=O)[C@H](C(C)C)NC(=O)[C@H](Cc2c[nH]c3ccccc23)NC(=O)[C@H]([C@@H](C)O)NC(=O)[C@H](CC(C)C)NC(=O)[C@H](C)NC(=O)CNC(=O)[C@H](Cc2ccccc2)NC(=O)[C@H](Cc2c[nH]cn2)NC1=O)[C@@H](C)O | – | healthy BALB/c mice | subcutaneous, 0.08 mg/kg, 4 d, single dose | – | haematocrit | 48.5% |
| CCCCCN1C[C@H](O)[C@@H](O)[C@H](O)[C@@H]1CO | – | Hexb-/- mouse | 30 mg/kg/day | – | delay of motor symptom onset | ≥ 2 week |
| COc1ccc(-c2cncc(N[C@@H](C)c3cccc(NC(=O)c4cncc(C)c4)c3)n2)cc1OC | item: rno-miR-141-3p | rat SU5416/hypoxia model, lung | dose not given | reference: SU5416/hypoxia vehicle | fold change | 1.85 |
| CN(C)C(=N)N=C(N)N | – | gestational diabetes women | dose not given, treated arm | – | newborn weight | 2.9 ± 0.5 kg |
| C[C@@H](O)CCOC(=O)C[C@@H](C)O | item: C18:2 acylcarnitine | human, plasma | 60 min, log2-transformed values | – | metabolite level | -4.08 ± 0.52 µmol/L |
| Cc1ncc(Cl)cc1NCc1ccc(C(=O)N[C@@H](CC2CCCC2)C(=O)NC2CC2)s1 | – | mice, K562-p21-ffLuc xenograft | oral gavage, 150 mg/kg single, 4 h | reference: vehicle | p21-luciferase fold increase | 4 fold |

| SMILES | test | system | setting | how to read | measurement | value |
| --- | --- | --- | --- | --- | --- | --- |
| CN[C@@H]1COc2c(S(=O)(=O)NC(=O)Nc3c4c(cc5c3CCC5)CCC4)cnn2C1 | item: IL-18 | human participants, whole blood ex vivo | 150 mg single dose, 336 h, IL-18, circulating, adjusted for, added: LPS/ATP | reference: baseline | inhibition | 13.7% |
| CC(C)[C@H](C(=O)Nc1ccc(C(=O)NO)cc1)c1ccccc1 | volumetric MRI | human, left IAC schwannoma | dose not given, on treatment, day 224 | – | annual tumour growth rate | 92 %/year |
| O=C(O)CNC(=O)Cc1ccccc1 | – | ventricular cardiomyocytes, C57BL/6 mouse | dose not given, 0.168 s | – | sarcomere length | 1.64 µm |
| C[C@H](Oc1ccc(Br)cc1-c1ccon1)C(=O)O | relative refractory period | human, tibialis anterior muscle | 50 mg, SAD | – | difference from placebo | 0.131 ms |
| CC(C)NCC(O)c1ccc(O)c(O)c1 (centres unmarked) | – | ventricular cardiomyocytes, C57BL/6 mouse | dose not given, 0.076 s | – | sarcomere length | 1.72 µm |
| Cc1n[nH]c2ccc(-c3cc(OC[C@@H](N)Cc4ccccc4)cnc3-c3ccoc3)cc12 | kinase binding, competitor, MIB/MS competition, item: RIM8 | Candida albicans cell lysate | 1 µM | reference: DMSO | log2 fold change | -0.122 |
| Cc1oncc1C(=O)Nc1ccc(C(F)(F)F)cc1 | item: dihydroorotate | female CD-1 mice, pooled urine | oral, 10 mg/kg daily, 8-24 h after dose 3, 10-day dosing | – | DHO concentration | 325 ± 4.96 µM |
| Cc1nn(-c2nc3c(F)cc(F)cc3s2)c(O)c1C(c1ccc(C(F)(F)F)cc1)c1c(C)nn(-c2nc3c(F)cc(F)cc3s2)c1O | – | mouse, cerulein-induced acute pancreatitis, serum | 25 mg/kg, 192 h | – | lipase activity | 140 mOD/min and 116 mOD/min and 88.7 mOD/min and 83.7 mOD/min and 96.1 mOD/min |
| C[C@@H](NC(=O)N1C(=O)[C@H](Cc2ccnc(N)c2)[C@H]1C(=O)O)C1CCCCC1 | – | human | iv infusion, 1.5 mg/kg/h, 24 h, unit not given | reference: baseline | PT AUEC | 148 |
| OC(CCN1CCCCC1)(c1ccccc1)C1CC2C=CC1C2 (centres unmarked) | resting-state EEG | healthy elderly humans | oral, 4 mg, eyes open, LS mean | – | beta power, EEG, Fz Cz | 5.7 µV² |
| O=C(COc1ccc(Cl)cc1)NC12CC(c3nnc([C@H]4C[C@@H](OC(F)(F)F)C4)o3)(C1)C2 | – | healthy human, PBMC | oral, 200 mg single dose, day 1, 4 h post-dose, median, added: sodium arsenite ex vivo | reference: baseline | ATF4 protein change | -48.9% |
| C=CCn1c(=O)c2cnc(Nc3ccc(N4CCN(C)CC4)cc3)nc2n1-c1ccc2c(n1)[C@@](O)(CC)CC2 | – | ZR-75-1 xenograft, BALB/c nude mice | oral, 80 mg/kg, day 28, once daily days 0-21 and 25-27 | – | tumour volume difference | 392 ± 19.8 mm3 |
| N#Cc1ccc2c(c1)[C@H]1CCCN(C(=O)c3ccc4[nH]cnc4c3)[C@H]1C2 | – | human, urine | 80 mg, 336 h, day 14 over day -1 | reference: placebo and baseline | total urinary corticosteroids | 110 % change |
| COc1nc(-c2cc(C)c(N[C@@H](C)c3cc(F)cc(F)c3)nn2)ccc1-n1cnc(C)c1 | item: Aβ38 | rat Sprague-Dawley male, CSF | oral, 25 mg/kg daily for 9 days, 4 h after dose | reference: vehicle | change in level | 62% |
| CCO[C@H]1CCN(Cc2c(OC)cc(C)c3[nH]ccc23)[C@H](c2ccc(C(=O)O)cc2)C1 | – | PNH patients, blood | oral, 25 mg then 100 mg, week 4, mean absolute change | reference: baseline | PNH RBC clone size | 30.4% |
| COc1cc(Nc2ncc3c(n2)-c2ccc(Cl)cc2C(c2c(F)cccc2OC)=NC3)ccc1C(=O)O | – | mouse, OS-1 osteosarcoma xenograft | 5.2 mg/kg | direction not given | median response score | 2 |
| COc1ccc(F)cc1C(=O)NCc1ccc(-c2nn([C@@H](C)C(F)(F)F)c(N)c2C(N)=O)cc1 | – | MCL patients | dose not given, all efficacy-evaluable patients | – | overall response rate | 52% |
| N#CCC1CCN(c2nc(Nc3ccc(N4CCC(O)CC4)cc3)c3c(=O)[nH]ncc3n2)CC1 | Olink multiplex, item: CDCP1 | human, serum | 40 mg, day 15 | reference: baseline | fold change from baseline | -1.27 |
| CN(C)C(=O)c1cc2cnc(Nc3ccc(N4CCNCC4)cn3)nc2n1C1CCCC1 | RNA-seq GSEA, item: HALLMARK_COMPLEMENT | MB002 tumour | concentration not given, in vivo | reference: vehicle, direction not given | normalized enrichment score | -1.3 |
| COc1ccccc1[C@H](Cn1c(=O)n(C(C)(C)C(=O)O)c(=O)c2c(C)c(-c3ncco3)sc21)OC1CCOCC1 | – | human | 200 mg, post-treatment | – | blood LDL level | 122 ± 23.5 mg/dL |
